Measured values pooled from the literature.
Each line is one published result; not all experiments were run side by side. ± marks the error that the study gave.

SMILES | assay | test system | conditions | quantity | result
O=C(O)[C@H]1/C(=C/CO)O[C@@H]2CC(=O)N21 | population PK model | human, plasma | oral | absorption rate constant | 0.781 h⁻¹
COc1cc(N2CCC3(CCN(C)CC3)CC2)ccc1Nc1ncc(Cl)c(Nc2ccccc2P(C)(C)=O)n1 | population PK model | human | oral, fed subjects, bootstrap median | absorption lag time | 0.473 h
C[C@@H]1CCO[C@H]2Cn3cc(C(=O)NCc4ccc(F)cc4F)c(=O)c(O)c3C(=O)N12 | population PK model | paediatric humans, plasma | oral, dispersible tablet or granules | absorption rate constant | 1.74 h⁻¹
OC[C@H]1O[C@@H](c2ccc(Cl)c(Cc3ccc(O[C@H]4CCOC4)cc3)c2)[C@H](O)[C@@H](O)[C@@H]1O | population PK model | human, plasma | oral | absorption rate constant ka | 0.196 h⁻¹
COc1ccc(-n2nc(C(N)=O)c3c2C(=O)N(c2ccc(N4CCCCC4=O)cc2)CC3)cc1 | – | human, plasma | oral, Final population PK model | absorption rate constant | 0.486 ± 0.0215 h⁻¹
NC(N)=NCCC[C@@H](N)C(=O)N[C@@H](CCCN=C(N)N)C(=O)N1CCC[C@H]1C(=O)N1C[C@H](O)C[C@H]1C(=O)NCC(=O)N[C@@H](Cc1cccs1)C(=O)N[C@@H](CO)C(=O)N1Cc2ccccc2C[C@@H]1C(=O)N1[C@H](C(=O)N[C@@H](CCCN=C(N)N)C(=O)O)C[C@@H]2CCCC[C@@H]21 | popPK full model bootstrap median | human | subcutaneous | absorption rate constant (ka) | 3.26 h⁻¹
NC(=O)N1c2ccccc2CC(=O)c2ccccc21 | population PK, bootstrap median | human patients, plasma | oral | absorption rate constant | 0.246 h⁻¹
CNC(=O)c1c(C)oc2cc(Oc3ncnc4cc(OC)c(OC)cc34)ccc12 | population PK model | human | oral, with: proton pump inhibitor | absorption rate constant ka | 0.99 h⁻¹
N#CCNC(=O)c1ccc(-c2ccnc(Nc3ccc(N4CCOCC4)cc3)n2)cc1 | population PK model, NONMEM | human, plasma | oral, typical value, final model | absorption rate constant ka | 0.303 h⁻¹
Cc1cn(-c2cc(NC(=O)c3ccc(C)c(Nc4nccc(-c5cccnc5)n4)c3)cc(C(F)(F)F)c2)cn1 | population PK model, typical value | human, both sexes, plasma | oral | absorption lag time (ALAG1) | 0.0988 h
Cn1cnc2c(F)c(Nc3ccc(Br)cc3Cl)c(C(=O)NOCCO)cc21 | population PK model | human, plasma | oral, zero-order absorption model, fasted | absorption lag time | 0.39 h
NC1(C(=O)N[C@@H](CCO)c2ccc(Cl)cc2)CCN(c2nc[nH]c3nccc2-3)CC1 | – | human | capsules | absorption lag time | 0.468 h
CC[C@@H]1CN(C(=O)NCC(F)(F)F)C[C@@H]1c1cnc2cnc3[nH]ccc3n12 | population PK modelling | human | oral, extended-release formulation, outliers excluded | absorption lag time | 0.154 h
N[C@@H]1c2cccnc2[C@H](OC(=O)N2CCC(n3c(=O)[nH]c4ncccc43)CC2)CC[C@H]1c1cccc(F)c1F | – | human | oral | absorption rate constant | 3.86 h⁻¹
NC(=O)c1cnc2[nH]ccc2c1N[C@@H]1[C@@H]2CC3C[C@H]1C[C@@](O)(C3)C2 | – | healthy human volunteers, plasma | oral, population PK model estimate | absorption lag time | 0.133 h
COC(=O)N[C@H](C(=O)N1CCC[C@H]1c1nc(-c2ccc(-c3ccc(-c4c[nH]c([C@@H]5CCCN5C(=O)[C@@H](NC(=O)OC)C(C)C)n4)cc3)cc2)c[nH]1)C(C)C | – | human, both sexes | oral, popPK base model, one-compartment | absorption rate constant | 0.879 h

Excerpt of the above:
SMILES | assay | test system | conditions | quantity | result
NC(=O)c1cnc2[nH]ccc2c1N[C@@H]1[C@@H]2CC3C[C@H]1C[C@@](O)(C3)C2 | – | healthy human volunteers, plasma | oral, population PK model estimate | absorption lag time | 0.133 h
COC(=O)N[C@H](C(=O)N1CCC[C@H]1c1nc(-c2ccc(-c3ccc(-c4c[nH]c([C@@H]5CCCN5C(=O)[C@@H](NC(=O)OC)C(C)C)n4)cc3)cc2)c[nH]1)C(C)C | – | human, both sexes | oral, popPK base model, one-compartment | absorption rate constant | 0.879 h
